Published values from different studies.
± gives the spread as reported.

The relative abundance of `CC(CCC(=O)NCc1ccc(C(=O)NO)cc1)C1CCC2C3C(O)CC4CC(O)CCC4(C)C3CCC12C` (stereo not shown) is reported as 43.4% (item: CA; PCK rat (Pkhd1 mutant), portal blood; oral gavage, dose not given, 5 months; reference: total bile acids).
`NC[C@@H](C(=O)Nc1ccc(-c2cn[nH]c2)cc1)c1ccccc1` has an IOP of 18.2 mmHg (tonometry; Macaca cyclopis, ocular normotensive; ocular, 0.1%, 72 h).
For `O=[N+]([O-])[O-].O=c1c(C=NN=C([S-])Nc2ccccc2)coc2ccccc12.[Cu+2].c1ccc(-c2ccccn2)nc1`, “nicked circular DNA” read 20% (DNA cleavage; supercoiled pUC19 DNA; 100 µM, 30 min, with: ascorbic acid).
`C=CC(=O)N1CC2C(=O)N(CCN(C)C)c3c(c4cc(Cl)c(-c5c(O)cccc5F)nc4n(-c4c(C)ccnc4C(C)C)c3=O)N2CC1C` (stereo not shown) gave a tumour regression of 114% (SW837, mouse xenograft; oral, 100 mg/kg once daily).
`N[C@@H](CNC(=O)N[C@@H](CS)C(=O)NCC(=O)O)C(=O)O`: AGE accumulation “decreased” (Western blot; mouse C57BL/6, Aβ i.c.v. model, brain; intranasal, dose not given).
With `CC(=O)[O-].O.[Cu+2].[O-]c1ccc(Br)cc1C=NCCN1CCOCC1` the inhibition was 61.7% (superoxide scavenging; 200 µM).
`COc1ccc(C(=O)CCc2cc(C(CCc3ccc(O)cc3OC)c3ccc(O)cc3)c(O)cc2OC)cc1` (racemic) has a 4-HDHA level of 29 ± 4 pg/mL (human blood; 1 µM, with: A23187).
Under “log2 fold change”, `COC1CN([C@H]2CC[C@H]([C@@]3(C)Oc4c(Cl)cc(C(=O)NCc5c(SC)cc(C)[nH]c5=O)c(C)c4O3)CC2)C1` is recorded as 2.28 (RNA-seq, item: PDZD3; human, whole blood; dose not given, 24 h; reference: pretreatment baseline).
The PGD2 level of `COc1cc(O)ccc1CCC(c1ccc(O)cc1)c1cc2c(c(C)c1O)OC(c1ccc(O)cc1)CC2` (mixture of isomers) is reported as 5 ± 1 pg/mL (human blood; 1 µM, with: A23187).
The IL-1β inhibition of `CN1CCC[C@]1(C)/C=C/S(=O)(=O)NC(=O)Nc1c2c(cc3c1CCC3)CCC2` is reported as 98.2% (human, whole blood ex vivo; 50 mg twice daily, day 1, 12 h, multiple ascending dose, with: LPS and ATP).
